Results from different studies.
Lines come from different studies, so protocols differ. Values joined by “and” are separate records of one study, mostly repeats; a detail may differ. ± gives the spread as reported.
Chain of UniProt Q9UNU6 (whole entry, unmodified, looked up): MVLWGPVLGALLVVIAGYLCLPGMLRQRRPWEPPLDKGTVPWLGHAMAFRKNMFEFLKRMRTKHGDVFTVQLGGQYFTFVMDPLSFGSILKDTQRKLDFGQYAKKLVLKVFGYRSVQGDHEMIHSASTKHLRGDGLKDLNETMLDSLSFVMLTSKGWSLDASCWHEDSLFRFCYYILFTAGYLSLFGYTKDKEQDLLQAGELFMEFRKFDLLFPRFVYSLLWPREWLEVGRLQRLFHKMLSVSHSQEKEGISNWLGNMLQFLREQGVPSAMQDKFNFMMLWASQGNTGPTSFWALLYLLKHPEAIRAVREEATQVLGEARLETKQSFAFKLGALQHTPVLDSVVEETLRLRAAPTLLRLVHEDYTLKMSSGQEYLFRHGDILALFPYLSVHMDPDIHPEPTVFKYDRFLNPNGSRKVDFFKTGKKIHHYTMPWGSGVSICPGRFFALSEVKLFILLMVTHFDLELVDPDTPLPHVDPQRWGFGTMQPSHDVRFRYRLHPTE
Chain of UniProt Q9NNX6 (whole entry, looked up): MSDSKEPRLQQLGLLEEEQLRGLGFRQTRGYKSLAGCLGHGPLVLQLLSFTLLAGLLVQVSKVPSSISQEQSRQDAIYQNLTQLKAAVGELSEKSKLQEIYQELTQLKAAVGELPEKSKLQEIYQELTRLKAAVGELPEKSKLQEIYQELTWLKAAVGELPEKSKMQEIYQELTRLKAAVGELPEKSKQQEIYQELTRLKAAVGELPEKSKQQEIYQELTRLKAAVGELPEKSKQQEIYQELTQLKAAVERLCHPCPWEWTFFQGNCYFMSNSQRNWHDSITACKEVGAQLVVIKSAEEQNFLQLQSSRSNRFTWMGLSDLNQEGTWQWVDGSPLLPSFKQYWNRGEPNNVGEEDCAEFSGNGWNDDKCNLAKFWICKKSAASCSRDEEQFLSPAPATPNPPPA
Chain of UniProt Q9UKE5 (whole entry, looked up): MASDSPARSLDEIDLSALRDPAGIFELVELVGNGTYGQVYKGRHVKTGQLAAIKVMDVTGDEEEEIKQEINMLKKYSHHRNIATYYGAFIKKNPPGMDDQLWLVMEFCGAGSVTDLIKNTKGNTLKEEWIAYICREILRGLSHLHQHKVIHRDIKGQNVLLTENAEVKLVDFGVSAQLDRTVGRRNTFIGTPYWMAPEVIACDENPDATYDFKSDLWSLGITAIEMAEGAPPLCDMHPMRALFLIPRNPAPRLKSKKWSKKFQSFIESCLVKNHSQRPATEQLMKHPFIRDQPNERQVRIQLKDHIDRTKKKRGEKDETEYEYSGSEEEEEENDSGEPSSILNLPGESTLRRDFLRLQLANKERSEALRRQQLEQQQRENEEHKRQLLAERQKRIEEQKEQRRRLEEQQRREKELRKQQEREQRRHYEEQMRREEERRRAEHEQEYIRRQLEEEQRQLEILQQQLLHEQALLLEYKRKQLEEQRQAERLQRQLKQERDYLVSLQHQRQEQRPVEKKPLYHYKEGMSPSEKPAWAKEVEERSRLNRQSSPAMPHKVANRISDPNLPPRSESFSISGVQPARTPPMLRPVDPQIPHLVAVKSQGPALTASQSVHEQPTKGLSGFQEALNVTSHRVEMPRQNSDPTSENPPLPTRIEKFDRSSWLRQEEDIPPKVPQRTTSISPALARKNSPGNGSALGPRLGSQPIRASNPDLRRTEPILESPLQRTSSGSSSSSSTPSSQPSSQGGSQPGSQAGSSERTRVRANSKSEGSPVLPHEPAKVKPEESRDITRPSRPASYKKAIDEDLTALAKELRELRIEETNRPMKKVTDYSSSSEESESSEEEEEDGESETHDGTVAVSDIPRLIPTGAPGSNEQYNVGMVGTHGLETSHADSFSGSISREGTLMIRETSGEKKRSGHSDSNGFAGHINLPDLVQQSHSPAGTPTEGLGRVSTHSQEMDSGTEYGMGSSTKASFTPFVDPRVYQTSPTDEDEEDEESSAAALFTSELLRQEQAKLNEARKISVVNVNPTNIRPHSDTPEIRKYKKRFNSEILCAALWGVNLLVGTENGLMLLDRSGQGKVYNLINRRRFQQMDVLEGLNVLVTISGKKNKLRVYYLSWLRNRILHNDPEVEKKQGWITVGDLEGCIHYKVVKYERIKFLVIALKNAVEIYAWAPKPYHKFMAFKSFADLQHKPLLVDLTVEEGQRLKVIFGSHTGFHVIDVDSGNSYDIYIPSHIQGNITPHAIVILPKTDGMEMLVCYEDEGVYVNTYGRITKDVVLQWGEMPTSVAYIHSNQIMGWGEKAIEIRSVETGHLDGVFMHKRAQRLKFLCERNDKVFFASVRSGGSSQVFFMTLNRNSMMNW
Chain of UniProt P42684 (whole entry, looked up): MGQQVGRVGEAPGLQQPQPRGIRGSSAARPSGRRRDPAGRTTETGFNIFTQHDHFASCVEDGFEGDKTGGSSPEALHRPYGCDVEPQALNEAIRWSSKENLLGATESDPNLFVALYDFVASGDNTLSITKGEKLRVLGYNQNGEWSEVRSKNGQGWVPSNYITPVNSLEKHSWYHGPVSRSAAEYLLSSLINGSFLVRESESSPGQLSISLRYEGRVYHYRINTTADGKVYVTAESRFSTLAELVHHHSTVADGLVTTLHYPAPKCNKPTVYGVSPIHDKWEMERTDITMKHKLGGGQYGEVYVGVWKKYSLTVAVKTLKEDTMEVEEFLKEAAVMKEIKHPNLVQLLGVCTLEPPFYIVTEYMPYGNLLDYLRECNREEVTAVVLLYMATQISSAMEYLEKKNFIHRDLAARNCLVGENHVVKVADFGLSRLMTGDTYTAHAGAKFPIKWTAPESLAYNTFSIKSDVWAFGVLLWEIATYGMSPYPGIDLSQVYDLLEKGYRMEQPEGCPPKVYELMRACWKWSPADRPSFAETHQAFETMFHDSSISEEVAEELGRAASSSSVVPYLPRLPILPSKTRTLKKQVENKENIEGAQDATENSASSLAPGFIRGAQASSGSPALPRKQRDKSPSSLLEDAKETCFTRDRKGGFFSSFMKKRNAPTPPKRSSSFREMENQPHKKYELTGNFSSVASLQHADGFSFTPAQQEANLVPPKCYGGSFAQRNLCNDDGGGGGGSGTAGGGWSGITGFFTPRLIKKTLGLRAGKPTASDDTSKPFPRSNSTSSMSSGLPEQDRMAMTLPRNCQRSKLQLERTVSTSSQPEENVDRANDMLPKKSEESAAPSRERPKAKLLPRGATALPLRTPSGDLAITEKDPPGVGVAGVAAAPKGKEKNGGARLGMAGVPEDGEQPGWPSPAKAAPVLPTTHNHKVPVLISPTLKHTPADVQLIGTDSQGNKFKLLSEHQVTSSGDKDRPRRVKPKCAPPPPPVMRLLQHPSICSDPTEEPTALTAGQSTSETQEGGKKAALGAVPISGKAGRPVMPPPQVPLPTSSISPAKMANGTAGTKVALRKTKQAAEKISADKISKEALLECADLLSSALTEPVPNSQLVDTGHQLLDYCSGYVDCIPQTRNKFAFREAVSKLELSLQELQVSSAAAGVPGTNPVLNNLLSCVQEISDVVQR
Chain of UniProt Q9HB29 (whole entry, looked up): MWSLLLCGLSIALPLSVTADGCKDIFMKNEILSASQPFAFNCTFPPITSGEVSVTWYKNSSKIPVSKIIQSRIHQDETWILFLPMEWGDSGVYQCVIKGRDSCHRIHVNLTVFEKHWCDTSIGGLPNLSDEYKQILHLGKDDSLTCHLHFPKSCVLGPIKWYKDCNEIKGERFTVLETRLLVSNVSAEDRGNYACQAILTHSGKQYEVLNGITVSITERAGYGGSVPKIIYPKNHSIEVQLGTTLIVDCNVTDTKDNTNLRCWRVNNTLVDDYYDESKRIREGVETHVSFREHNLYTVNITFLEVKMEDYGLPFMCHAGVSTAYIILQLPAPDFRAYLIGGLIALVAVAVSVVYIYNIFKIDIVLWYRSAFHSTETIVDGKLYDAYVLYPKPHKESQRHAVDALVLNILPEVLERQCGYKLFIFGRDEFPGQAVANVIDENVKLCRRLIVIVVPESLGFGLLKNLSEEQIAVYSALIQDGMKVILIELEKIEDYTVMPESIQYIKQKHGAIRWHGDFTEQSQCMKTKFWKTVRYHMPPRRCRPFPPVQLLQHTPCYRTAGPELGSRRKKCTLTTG

Compound | target or system | test | system | conditions | endpoint | result
CC(C)[C@@H]1NC(=O)[C@H](Cc2ccccc2)NC(=O)CSC[C@@H](C(N)=O)NC(=O)[C@H](CCC(=O)O)NC(=O)[C@H](CO)NC(=O)[C@H](Cc2c[nH]c3ccccc23)NC(=O)[C@H](C(C)C)NC(=O)[C@H](C(C)C)NC(=O)[C@H](Cc2ccc(O)cc2)NC(=O)[C@H](CC(=O)O)NC(=O)[C@H](Cc2c[nH]c3ccccc23)NC(=O)[C@H](Cc2ccc(N)nc2)NC(=O)[C@H](Cc2c[nH]c3ccccc23)NC(=O)[C@H](CCC(=O)O)NC1=O | Interleukin-1 receptor-like 2, D1-D2 domains (IL1RL2, Homo sapiens, UniProt Q9HB29) | SPR |  | IL-36R domains D1-D2 | Kd | 0.111 ± 0.002 µM
CC[C@H](C)[C@H](NC(=O)[C@H](CCC(=O)O)NC(=O)[C@H](CCCNC(=N)N)NC(=O)[C@H](C)NC(=O)[C@H](Cc1c[nH]c2ccccc12)NC(=O)[C@H](CCC(N)=O)NC(=O)[C@H](CCC(=O)O)NC(=O)[C@H](CCC(=O)O)NC(C)=O)C(=O)NCC(=O)N[C@@H](C)C(=O)N[C@@H](CCC(N)=O)C(=O)N[C@@H](CC(C)C)C(=O)N[C@@H](CCCNC(=N)N)C(=O)N[C@@H](CCCNC(=N)N)C(=O)N[C@@H](CCSC)C(=O)N[C@@H](C)C(=O)N[C@@H](CC(=O)O)C(=O)N[C@@H](CC(=O)O)C(=O)N[C@@H](CC(C)C)C(=O)N[C@@H](CC(N)=O)C(=O)N[C@@H](C)C(=O)N[C@@H](CCC(N)=O)C(=O)N[C@@H](Cc1ccc(O)cc1)C(=O)N[C@@H](CCC(=O)O)C(=O)N[C@@H](CCCNC(=N)N)C(N)=O | Bcl-2-like protein 1, C-terminal truncated (BCL2L1, Homo sapiens, UniProt Q07817) | binding, ITC |  | 25 °C | Kd | 0.003 ± 0.002 µM
CCCc1cc2cc(-n3nc(CCC)c4c3CC(C)(C)CC4=O)cc(N3CCC(O)CC3)c2c(=O)[nH]1 | HSP90AA1 (Homo sapiens, UniProt P07900) | fluorescence polarization |  | 24 h, 4 °C, together with: FITC-geldanamycin tracer | Kd | > 100 µM
CSCC[C@H](NC(=O)CNC(=O)[C@H](CCCNC(=N)N)NC(=O)[C@H](C)NC(=O)[C@@H](NC(=O)[C@H](CCC(N)=O)NC(=O)[C@H](Cc1ccc(OP(=O)(O)O)cc1)NC(=O)[C@H](C)NC(=O)[C@H](CS)NC(=O)[C@H](CO)NC(=O)[C@@H](NC(=O)[C@H](CC(C)C)NC(=O)[C@H](CC(=O)O)NC(=O)[C@H](CCCCN)NC(=O)[C@H](CO)NC(=O)[C@H](CO)NC(=O)c1ccc2c(c1)C(=O)OC21c2ccc(N(C)C)cc2Oc2cc(N(C)C)ccc21)C(C)C)C(C)C)C(=O)N[C@@H](CCC(=O)O)C(=O)N[C@@H](CC(=O)O)C(=O)O | Tyrosine-protein kinase ABL2, SH2 domain (ABL2, Homo sapiens, UniProt P42684) | binding |  |  | Kd | 0.012 µM
C=C1NC(=O)[C@H](CO)NC(=O)[C@H](CSCC(N)=O)NC(=O)CNC(=O)[C@H](Cc2ccc(O)cc2)NC(=O)[C@H](C)NC(=O)[C@H](CO)NC(=O)[C@H](CC(=O)O)NC(=O)CNC(=O)[C@H](CC(C)C)NC(=O)[C@H](Cc2c[nH]c3ccccc23)NC(=O)[C@H](Cc2c[nH]c3ccccc23)NC(=O)c2ccc(-c3nc(C(=O)OC)cs3)nc2-c2csc1n2 | TNIK (Homo sapiens, UniProt Q9UKE5) | binding, SPR |  |  | Kd | 0.028 µM
C=C1[C@@H](O)C[C@H]2C(C)(C)C[C@H](F)C[C@]2(C)[C@H]1C[C@H](O)[C@H]1CC(=O)NC1=O | ribosome, Saccharomyces cerevisiae, 80S, E site | smFRET |  | pH 7.5, 23 °C, 5 mM MgCl2 | Kd | 3.8 ± 1.3 µM
O=C1NC2(CC2)COc2ncc(F)cc2[C@H]2COCCN2c2ccn3ncc1c3n2 |  |  | Sprague-Dawley rat, female, serum | oral, 20 mg/kg/day, 4 weeks daily, end of treatment | aspartate aminotransferase activity | 141 ± 28.9 U/L
NCc1cn([C@@H]2[C@@H](OCCn3cc(COCCOCCOCCn4cc(-c5cc(OCCOCCO)c(C#Cc6cc(OCCOCCO)c(C#Cc7cc(OCCOCCO)c(-c8cn(CCOCCOCCOCc9cn(CCO[C@H]%10O[C@H](CO)[C@@H](O)[C@H](O)[C@@H]%10n%10cc(CN)nn%10)nn9)nn8)cc7OCCOCCO)cc6OCCOCCO)cc5OCCOCCO)nn4)nn3)O[C@H](CO)[C@@H](O)[C@@H]2O)nn1 | CD209 antigen (CD209, Homo sapiens, UniProt Q9NNX6) | binding |  |  | Kd | 24.5 µM and 31.7 µM
CC12CCC(=O)C=C1CCC1C2C=C(c2cccnc2)C2(C)C(=O)CCC12 (stereo not drawn) | 7-alpha-hydroxycholest-4-en-3-one 12-alpha-hydroxylase (Homo sapiens, UniProt Q9UNU6, W281F) | binding, spectral titration |  |  | Kd | ~32 µM and 32.1 µM

Repeated from above:
Compound | target or system | test | system | conditions | endpoint | result
C=C1[C@@H](O)C[C@H]2C(C)(C)C[C@H](F)C[C@]2(C)[C@H]1C[C@H](O)[C@H]1CC(=O)NC1=O | ribosome, Saccharomyces cerevisiae, 80S, E site | smFRET |  | pH 7.5, 23 °C, 5 mM MgCl2 | Kd | 3.8 ± 1.3 µM
